{"data": "Assay results pooled from the literature", "GABBR1": "Gamma-aminobutyric acid type B receptor subunit 1 (GABBR1, Homo sapiens, UniProt Q9UBS5)", "Rac GTPase-activating protein 1": "Rac GTPase-activating protein 1 (Homo sapiens, UniProt Q9H0H5)", "PRKAA1 with beta1, gamma2": "5'-AMP-activated protein kinase catalytic subunit alpha-1, with beta1, gamma2 (PRKAA1, Homo sapiens, UniProt Q13131)", "USP14": "Ubiquitin carboxyl-terminal hydrolase 14 (USP14, Homo sapiens, UniProt P54578)", "note": "Protocols differ between the studies behind these lines."}
{"SMILES": "C[Si]1(C[C@H](CN)CC(=O)O)CCCC1", "target": "GABBR1", "test": "ligand displacement, radioligand", "conditions": "70 µM", "inhibition [%]": 0}
{"SMILES": "CCOC(=O)C(Sc1nnc(-c2c[nH]c3ccccc23)n1C)C(=O)OCC", "target": "Rac GTPase-activating protein 1", "test": "enzyme activity, inhibitor, ADP detection", "conditions": "20 µM", "inhibition [%]": 40.3}
{"SMILES": "CCn1cc(C(=O)O)c(=O)c2c(N)c(F)c(NC3CCCCC3)cc21", "target": "PRKAA1 with beta1, gamma2", "test": "kinase activity", "conditions": "0.1 µM, added: ATP at Km", "inhibition [%]": -6.5}
{"SMILES": "Nc1ccc(N2CCOCC2)c(N)c1", "target": "USP14", "test": "enzyme activity, inhibitor", "conditions": "17 µM", "inhibition [%]": 92}
{"SMILES": "CN(C)C/C=C/C(=O)Nc1ccc2nc(NCCCCCN(C)C)nc(NCCCCCCN(C)C)c2c1", "target": "Histone-lysine N-methyltransferase SMYD3 (SMYD3, Homo sapiens, UniProt Q9H7B4)", "test": "enzyme activity, inhibitor, radiometric", "conditions": "50 µM", "inhibition [%]": 31}
{"SMILES": "Cc1oc2c(c1C(=O)NCN1CCOCC1)C(=O)c1ccccc1C2=O", "target": "USP14", "test": "enzyme activity, inhibitor", "conditions": "17 µM", "inhibition [%]": 20}
{"SMILES": "O=C1CC(=O)N(c2ccccc2)N1c1ccccc1", "target": "Rac GTPase-activating protein 1", "test": "enzyme activity, inhibitor, ADP detection", "conditions": "20 µM", "inhibition [%]": 36.7}
{"SMILES": "C[Si](C)(C)C[C@H](CN)CC(=O)O", "target": "GABBR1", "test": "ligand displacement, radioligand", "conditions": "250 µM", "inhibition [%]": -9}
{"SMILES": "C=CC(=O)N1Cc2nc(-c3cc(-c4cc(Cl)cnc4Cl)c(F)cc3F)n(-c3ccncn3)c2C1", "target": "PRKAA1 with beta1, gamma2", "test": "kinome panel", "conditions": "1 µM", "inhibition [%]": -4.8}
{"SMILES": "c1ccc(CSc2nnc(-c3ccco3)c(-c3ccco3)n2)cc1", "target": "Rac GTPase-activating protein 1", "test": "GAP activity, malachite green phosphate", "conditions": "concentration not given, orthogonal retest", "inhibition [%]": 54.4}
{"SMILES": "Nc1n[nH]c2cc(O)nc(O)c12", "target": "USP14", "test": "enzyme activity, inhibitor", "conditions": "17 µM", "inhibition [%]": 96}
{"SMILES": "CC(=O)C12NC(C)(C)CC1(C)C(=O)C1=C2c2c(c3c4n2C(C)(C)CC2=C4C4(CC(C)(C)NC(C)(C4)C2=O)CC3(C)C)C(=O)C(C)(C)N1 (single isomer, unassigned; (+))", "target": "Neuronal acetylcholine receptor; alpha3/beta4 (Homo sapiens, UniProt P30926+P32297)", "test": "ion current, patch clamp", "test system": "HEK-293T", "conditions": "10 µM", "inhibition [%]": 31.4}
{"SMILES": "CCOC(=O)C1(C)C(Br)=C(Cl)C(=O)N1c1ccc(Cl)cc1 (stereo not drawn)", "target": "Rac GTPase-activating protein 1", "test": "enzyme activity, inhibitor, ADP detection", "conditions": "20 µM", "inhibition [%]": 48.5}
{"SMILES": "O=C1C2=[N+]([O-])[C@H]3CCCC[C@H]3[N+]([O-])=C2c2ccccc21", "target": "USP14", "test": "enzyme activity, inhibitor", "conditions": "17 µM", "inhibition [%]": 40}
{"SMILES": "Cc1cc(N2CCOCC2)nc2cc(Cl)ccc12", "target": "Rac GTPase-activating protein 1", "test": "GAP activity, malachite green phosphate", "conditions": "concentration not given, orthogonal retest", "inhibition [%]": 35}
{"SMILES": "CCOc1ccc(S(=O)(=O)N=C2CC(Sc3nc[nH]n3)C(=O)c3ccccc32)cc1 (stereo not drawn)", "target": "USP14", "test": "enzyme activity, inhibitor", "conditions": "17 µM", "inhibition [%]": 81}
{"SMILES": "COc1ccc2c(c1)-c1nc(N)sc1CC2", "target": "Rac GTPase-activating protein 1", "test": "GAP activity, malachite green phosphate", "conditions": "concentration not given, orthogonal retest", "inhibition [%]": 46.4}
{"SMILES": "N#CC(=Cc1ccco1)C(N)=C(C#N)C#N", "target": "USP14", "test": "enzyme activity, inhibitor", "conditions": "17 µM", "inhibition [%]": 4}
